Results from different studies.
Protocols differ between the studies behind these lines. Values joined by “and” are separate records of one study, mostly repeats; a detail may differ. ± gives the spread as reported.
GBA1 R534H: Lysosomal acid glucosylceramidase (GBA1, Homo sapiens, UniProt P04062, R534H)
Sequence of UniProt P04062 (whole entry, unmodified, looked up): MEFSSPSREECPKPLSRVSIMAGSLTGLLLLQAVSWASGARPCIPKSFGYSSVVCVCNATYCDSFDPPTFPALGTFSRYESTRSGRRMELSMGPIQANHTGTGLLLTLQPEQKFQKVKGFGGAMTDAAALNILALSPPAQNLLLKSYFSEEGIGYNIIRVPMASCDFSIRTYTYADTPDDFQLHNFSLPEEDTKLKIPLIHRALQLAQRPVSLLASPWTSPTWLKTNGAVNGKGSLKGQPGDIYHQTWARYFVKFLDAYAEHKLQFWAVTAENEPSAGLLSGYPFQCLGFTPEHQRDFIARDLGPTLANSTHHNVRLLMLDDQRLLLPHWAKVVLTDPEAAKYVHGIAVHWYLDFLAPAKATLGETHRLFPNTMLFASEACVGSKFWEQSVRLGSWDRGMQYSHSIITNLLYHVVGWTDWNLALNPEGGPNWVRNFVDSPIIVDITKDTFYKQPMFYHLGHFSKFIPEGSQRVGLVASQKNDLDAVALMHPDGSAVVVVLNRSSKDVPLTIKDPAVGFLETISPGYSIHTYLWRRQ

For `O=C(Nc1cnccc1-c1ccc([18F])nc1)c1ccnc(NC(=O)C2CC2)c1`, the SUV was 9.8 (FVB/NJ mouse, both sexes, liver; intravenous, 30 min).
`COc1ccc(CCC(C)N2CCc3cc(O[11CH3])c(OC)cc3C2)cc1` (racemic): “polar metabolite fraction” 87.5 ± 2.9% (plasma; injection, 30 min; baseline: radioactivity).
With `Cc1ccc(C(NC(=O)c2cc(-c3ccccc3)n(-c3ccccc3)n2)c2ccncc2)cc1` (centres unmarked) the depletion was under 30% (rat liver microsomes; 4 h).
`O=C(N/N=C/c1ccc(-c2ccccc2Cl)o1)c1ccccc1` has a relative translation of 105% (Trypanosoma cruzi; reporter mRNA translation, inhibitor, refers to: capped polyadenylated Renilla luciferase mRNA; cell-free extract; concentration not given; baseline: control RNA).
The half-life of `C/C(N)=N/C(=N\S(=O)(=O)c1ccc(C(F)(F)F)cc1)N1C[C@H](c2ccccc2)C(c2ccc(Cl)cc2)=N1` is reported as 186 min (male C57BL/6 mouse, lung; oral, 10 mg/kg).
The IC50 of `CC(C)=CCC/C(C)=C/CC/C(C)=C/CN1C[C@H](O)[C@@H](O)[C@H](O)[C@H]1CO` is reported as 2.17 µM (GBA1 R534H; inhibitor, 4MU-β-D-glucopyranoside; with: 4MU-β-D-glucopyranoside).
The AUC(0-t) of `Cc1nn(-c2nc3c(F)cc(F)cc3s2)c(O)c1C(c1ccc(C(F)(F)F)cc1)c1c(C)nn(-c2nc3c(F)cc(F)cc3s2)c1O` is reported as 36000 ng·h/mL and 46800 ng·h/mL and 87800 ng·h/mL (ICR mouse, plasma; intravenous, 5 mg/kg).
For `CN([O-])C(=O)CN1CCNCCN(CC(=O)N(C)[O-])CC1.[89Zr+4]`, the tracer uptake was 0.06 %ID/g (mouse, spleen; intravenous, 24 h).
`CCCCN1C(=O)c2cccc3c(NCCCCN4CCOCC4)ccc(c23)C1=O` — result for “fluorescence quantum yield”: 0.29 (methanol).
`Cc1c(Cc2cccc(OC(C)(C)C(=O)O)c2)c2ccc(C(=O)N[C@@H](C)c3cccc(Br)c3)cc2n1C` has a half-life of 59.6 min (human liver microsomes).
`C=CC(=O)Nc1cc(Nc2nccc(-c3c[nH]c4ccccc34)n2)c(OC)cc1N(C)CCN(C)C` gave a recovery of 103% (storage stability; human plasma; 2 h, -80 °C, LLOQ level).
`CN1CCCNC(=O)c2cccc(c2)C(=O)NCCCN(C)CCCNc2cccc3c2C(=O)c2cccc(c2C3=O)NCCC1` has a body weight of 25.8 g (mouse xenograft model; dose not given, day 2, group mean).
For `O=[N+]([O-])c1cn2c(n1)O[C@@H](COc1ccc(-c3ccc(F)cc3)nc1)CC2`, the relative translation was 125% (Trypanosoma cruzi; reporter mRNA translation, inhibitor, refers to: capped polyadenylated Renilla luciferase mRNA; cell-free extract; concentration not given; baseline: control RNA).
`COCC1CN(C2CCN(c3cc(OC)c(Nc4ncc(Br)c(Nc5ccc6c(c5P(C)(C)=O)OCCO6)n4)cc3C)CC2)C1` — result for “Cmax at steady state”: 1230 ng/mL (EGFR-mutant NSCLC patients, plasma; oral, 90 mg multiple doses, geometric mean).
`OC[C@@H]1[C@@H](O)[C@H](O)[C@@H](O)CN1CCCCCOCc1ccc(-c2ccc(Br)cc2)cc1` gave an IC50 of 2.55 µM (GBA1 R534H; inhibitor, 4MU-β-D-glucopyranoside; with: 4MU-β-D-glucopyranoside).
Under “Cmax at first steady-state dose”, `CN1CCC[C@]1(C)/C=C/S(=O)(=O)NC(=O)Nc1c2c(cc3c1CC(O)C3)CCC2` (some centres unmarked) is recorded as 12100 ng/mL (human, plasma; oral, 100 mg twice daily of parent drug, day 14, metabolite of dosed drug).
`C=CC(=O)N1CCCC(n2c(=O)c3ncccc3n(Cc3ccc(Oc4ccccc4)cc3)c2=O)C1` (centres unmarked) has a compound remaining of 0.9% (metabolic stability; male CD-1 mouse, hepatocytes; 1 µM, 1 h).
With `COc1ccc(F)cc1C(=O)NCc1ccc(-c2nn([C@@H](C)C(F)(F)F)c(N)c2C(N)=O)cc1` the clearance was 28.2 mL/min (male human, plasma; intravenous, 22 µg).
`C=C(NC(=O)c1csc(-c2nc3c(cc2O)-c2nc(cs2)C(=O)NC(C(C)O)C(=O)NC(=C(C)OC)c2nc(cs2)C(=O)NC2c4nc(cs4)C(=O)NC(COC(=O)c4c5c6c(cccc6n4O)COC(=O)C(OC4CC(C)(O)C(N(C)C)C(C)O4)C2OC5)c2nc-3cs2)n1)C(N)=O` (centres unmarked) has a Tmax of 4.8 min (Sprague-Dawley rat, female, plasma; intravenous infusion, 6 mg/kg, multiple doses, day 1).
For `COc1ccc(C(N)=O)cn1`, “concentration at time” read 113 µM (Han Wistar rats, male, plasma; oral, 30 mg/kg, 0.25 h).

For quick reference, copied from above:
For `O=C(Nc1cnccc1-c1ccc([18F])nc1)c1ccnc(NC(=O)C2CC2)c1`, the SUV was 9.8 (FVB/NJ mouse, both sexes, liver; intravenous, 30 min).
The IC50 of `CC(C)=CCC/C(C)=C/CC/C(C)=C/CN1C[C@H](O)[C@@H](O)[C@H](O)[C@H]1CO` is reported as 2.17 µM (GBA1 R534H; inhibitor, 4MU-β-D-glucopyranoside; with: 4MU-β-D-glucopyranoside).
